Measured values from different studies.
Protocols differ between the studies behind these lines. “And” joins repeats or separate records; there may be more than shown. ± marks the error that the study gave. Values after ≈ are worked out from the molar mass of the structure shown.

C=C(NC(=O)c1csc(-c2nc3c(cc2O)-c2nc(cs2)C(=O)NC(C(C)O)C(=O)NC(=C(C)OC)c2nc(cs2)C(=O)NC2c4nc(cs4)C(=O)NC(COC(=O)c4c5c6c(cccc6n4O)COC(=O)C(OC4CC(C)(O)C(N(C)C)C(C)O4)C2OC5)c2nc-3cs2)n1)C(N)=O (stereo not shown)
MIC50 (Streptococcus pyogenes; 10 isolates; serum 25%): 0.0078 µg/mL (≈ 0.00543 µM)

CC(C)(C)NCC(SS(=O)(=O)O)c1ccccc1 (stereo not shown)
female worm burden reduction (Schistosoma mansoni; mice; 600 mg/kg single dose, 1056 h, dosed day 15, perfused 44; relative to: vehicle): 89%

Cc1cc(N2CC[C@@](C#N)(C3(C)CC3)C2=O)cc(C(=O)NCc2cc(F)cc(-c3cnn(C)c3)c2)n1
parasitaemia (Plasmodium falciparum; Pf3D70087/N9, humanized SCID mouse; 10 mg/kg, 4-day test, day 5 post-infection): 1.44%

O=C1C(=C(O)NC23CC4CC(CC(C4)C2)C3)C(=O)C2(C(=O)OCc3ccc([N+](=O)[O-])cc3)CSC(c3ccccn3)N12 (stereo not shown)
MIC (Streptomyces; bacterial growth, broth dilution; Mueller-Hinton broth; 24 h, 35 °C): 15.6 µg/mL (≈ 26.4 µM)

CC1(C)[C@H](NC(=O)/C(=N\OC2(C(=O)O)CCCCC2)c2csc(N)n2)C(=O)N1OS(=O)(=O)O
MIC (Providencia rettgeri; agar dilution; ATCC 31052, susceptible): 0.25 µg/mL (≈ 0.495 µM)

C=C[C@]1(C)C[C@@H](OC(=O)CSc2ccc(NC(=O)c3ccco3)cc2)[C@]2(C)[C@H](C)CC[C@]3(CCC(=O)[C@H]32)[C@@H](C)[C@@H]1O
lung mycoplasma load reduction (Mycoplasma gallisepticum; infected chickens, lung; intramuscular, 30 mg/kg daily x3, 72 h; relative to: 0 h): 1.27 log10 CFU/mL and 0.931 log10 CFU/mL and 0.479 log10 CFU/mL and 1.24 log10 CFU/mL and 1.78 log10 CFU/mL and 2.14 log10 CFU/mL and 1.06 log10 CFU/mL

Cc1cccc2c1N(C(=O)n1ccnn1)CC2
hypocotyl length (Arabidopsis thaliana; wild type, seedlings; 0.1 µM, continuous red light, together with: 0.3 µM karrikin KAR2): 12.9 mm

N=C(N)NCCC[C@@H]1NC(=O)[C@H](CCCNC(=N)N)NC(=O)[C@@H](CCCNC(=N)N)NC(=O)[C@@H](CCCNC(=N)N)NC(=O)[C@@H](C(c2ccccc2)c2ccccc2)NC(=O)[C@H](Cc2c[nH]c3ccccc23)NC(=O)[C@@H](C(c2ccccc2)c2ccccc2)NC1=O
reduction of viable cells (Candida albicans; ATCC 60193; 4 x MIC, 12 h): > 95%

CCC1(CC)CC(=O)N(C2CCOc3ccc(C(=O)NC4CC(C)(C)Oc5ccccc54)cc32)C(=N)N1 (stereo not shown)
EC50 (Plasmodium vivax; invasion of reticulocytes; field isolates; ex vivo): < 1 nM

NCCOCCO.O=C(O)C(Cl)Cl
herbicidal inhibition (Xanthium sibiricum; 15 mg/mL, 21 days, post-emergence, greenhouse): 0%

Cc1cc(C(=O)Nc2nc3cccc(C)c3n2[C@H]2CCCCN(C(=O)/C=C/CN(C)C)C2)ccn1
minimum cidal concentration (Trypanosoma brucei; wash-off; 24 h): 50 µM

CC1(C)[C@H](NC(=O)/C(=N\OCc2cc(=O)c(O)cn2O)c2csc(N)n2)C(=O)N1OS(=O)(=O)O
MIC (Citrobacter freundii; agar dilution; ATCC 43864 susceptible): 0.125 µg/mL (≈ 0.241 µM)

CN(C(=O)[C@H](Cc1ccccc1)NC(=O)Cc1c[nH]c2ccc(O)cc12)c1ccc(Cl)cc1
EC50 (human immunodeficiency virus 1; viral replication; NL4-3 with subtype AG gag/pol): 60 ± 8 nM

c1ccc(CN2CCOCCOCCN(CCCCCCCCCCCCN3CCOCCOCCN(CCCCCCCCCCCCN4CCOCCOCCN(Cc5ccccc5)CCOCCOCC4)CCOCCOCC3)CCOCCOCC2)cc1
FIC index (Klebsiella pneumoniae; checkerboard; ATCC BAA-2146; half MIC, together with: tetracycline): 0.63

CC(=O)C(C)(c1c[nH]c2ccccc12)c1c[nH]c2ccccc12
IC50 (Clostridioides difficile; microbial growth, absorbance): > 50000 nM

C[N+](C)(C)CCO.O=C([O-])C(Cl)Cl
herbicidal inhibition (Xanthium sibiricum; 15 mg/mL, 21 days, pre-emergence, greenhouse): 0%

C#CCO/N=C(\C(=O)N[C@@H]1C(=O)N(OS(=O)(=O)O)C1(C)C)c1csc(N)n1
MIC (Providencia rettgeri; agar dilution; ATCC 31052, susceptible): ≤ 0.03 µg/mL

COC(=O)[C@H](C)NC(=O)c1ccccc1NC(=O)[C@H](Cc1ccc(OC(C)(C)C)cc1)N(C)C(=O)[C@@H](NC(=O)OCc1ccccc1)C(C)C
fold potentiation (Candida albicans; potentiator, broth microdilution; ATCC 90029; 2.0 µg/mL, together with: amphotericin B; relative to: amphotericin B alone): 32

COC1C=COC2(C)Oc3c(C)c(O)c4c(c3C2=O)C2=NC3(CCN(CC(C)C)CC3)NC2=C(NC(=O)C(C)=CC=CC(C)C(O)C(C)C(O)C(C)C(OC(=O)Nc2cnccn2)C1C)C4=O (stereo not shown)
IC90 (Mycobacteroides abscessus; bacterial growth; subsp. abscessus Bamboo): 75 nM

NC(=O)c1cccc(NC(=O)c2cc(-c3ccc(Br)cc3)n(-c3ccccc3)n2)c1
inhibition (Dengue virus; viral replication, inhibitor, imaging; Vero, DENV2; 12.5 µM): > 60%

Cc1ccc(N(C)C(=O)[C@H](Cc2ccccc2)NC(=O)Cc2c[nH]c3ccc(O)cc23)cc1
EC50 (human immunodeficiency virus 1; viral replication; NL4-3 with subtype B gag/pol): 46 ± 10 nM

FC(F)(F)c1cccc(CNc2nc(NC3CCN(Cc4ccccc4)CC3)c3nc[nH]c3n2)c1
differentially expressed genes (Cryptococcus neoformans; RNA-seq; 48 µg/mL, 3 h; relative to: genome): ~18%
